Experimental data pooled from the literature.
Protocols differ between the studies behind these lines. ± marks the error that the study gave.

Cc1ncc([N+](=O)[O-])n1CCOCc1nnc(SCC(=O)c2ccc(F)cc2)o1 — DPPH scavenging (75 µg/mL, 45 min): 66.3 ± 0.35%
C[C@H](NC(=O)CNC(=O)[C@H](CCC(=O)O)NC(=O)[C@H](CCC(=O)O)NC(=O)[C@H](CC(=O)O)NC(=O)[C@@H]1CCCN1C(=O)[C@H](Cc1ccccc1)NC(=O)[C@H](CS)NC(=O)[C@H](Cc1ccc(O)cc1)NC(=O)CCCNC(=O)CNC(=O)CNC(=O)[C@@H](C)NC(=O)CN)C(=O)N[C@@H](CS)C(=O)N[C@@H](Cc1ccc(O)cc1)C(N)=O [technetium-99m labelled] — tumour to non-tumour ratio (SPECT; BALB/c nude mouse, SKBR3 tumour; intravenous, 37 MBq, 90 min): 4.56
CCOP(=O)(CC(=O)Nc1ccc(S(=O)(=O)N(CC(N)=O)c2ccc(N(CC(N)=O)S(=O)(=O)c3ccc(OC)cc3)c3ccccc23)cc1)OCC — protein level (western blot, refers to: BACE1; APP/PS1 mice, hippocampus and frontal cortex; 40 mg/kg, 2 months daily): decreased
CCCC[C@H](NC(=O)[C@@H](NC(=O)[C@H](CC(=O)O)NC(=O)[C@H](CCC(N)=O)NC(=O)[C@H](CC(C)C)NC(=O)[C@H](CC(C)C)NC(=O)[C@H](CCCN)NC(=O)[C@H](CCCNC(=N)N)NC(=O)[C@H](C)NC(=O)[C@H](CO)NC(=O)[C@H](CC(C)C)NC(=O)[C@H](CCC(N)=O)NC(=O)[C@H](CC)NC(=O)[C@H](CC(C)C)NC(=O)[C@@H](NC(=O)[C@H](CCCN)NC(=O)[C@H](CCCNC(=N)N)NC(=O)[C@H](Cc1ccc(O)cc1)NC(=O)[C@H](CO)NC(=O)[C@H](CCC(N)=O)NC(=O)[C@@H](NC(=O)[C@H](Cc1ccccc1)NC(=O)[C@@H](NC(=O)[C@H](C)NC(=O)[C@H](CC(=O)O)NC(=O)[C@@H](C)NC(=O)[C@H](Cc1ccc(O)cc1)NC)[C@@H](C)CC)[C@@H](C)O)C(C)C)[C@@H](C)CC)C(=O)N[C@@H](CC(=O)O)C(=O)NCCCCNC(=N)N — serum GH level (GH release, ELISA; male Sprague-Dawley rat, anaesthetised, serum; subcutaneous, 3 µg/kg, 15 min): 276 ± 46.4 ng/mL
Cc1cc2c(cc1C1(c3ncc(C(=O)O)cn3)CC1)C(C)(C)CCC2(C)C — log2 fold change (RNA sequencing, refers to: Arl11 mRNA; rat, brain; dose not given, 24 h, single dose; relative to: vehicle): -0.13
CCCCCCCCCCCCCCCC(=O)N[C@@H](CCC(=O)NCCCC[C@H](NC(=O)[C@H](CC(=O)O)NC(=O)[C@H](CO)NC(=O)[C@@H](NC(=O)[C@H](Cc1ccccc1)NC(=O)[C@@H](NC(=O)CNC(=O)[C@H](CCC(N)=O)NC(=O)[C@H](CO)NC(=O)[C@@H](N)Cc1c[nH]cn1)[C@@H](C)O)[C@@H](C)O)C(=O)N[C@@H](CO)C(=O)N[C@@H](CCC(=O)O)C(=O)N[C@@H](Cc1ccc(O)cc1)C(=O)N[C@@H](CC(C)C)C(=O)N[C@@H](CC(=O)O)C(=O)N[C@@H](CO)C(=O)N[C@@H](CCC(=O)O)C(=O)N[C@@H](CCCNC(=N)N)C(=O)N[C@@H](C)C(=O)N[C@@H](CCCNC(=N)N)C(=O)N[C@@H](CC(=O)O)C(=O)N[C@@H](Cc1ccccc1)C(=O)N[C@H](C(=O)N[C@@H](C)C(=O)N[C@@H](Cc1c[nH]c2ccccc12)C(=O)N[C@@H](CC(C)C)C(=O)N[C@@H](CCC(=O)O)C(=O)N[C@@H](C)C(=O)NCC(=O)NCC(=O)O)C(C)C)C(=O)O — body weight loss (female cynomolgus monkey; subcutaneous, 16 nmol/kg/day for 8 weeks, day 57; relative to: starting body weight): 11%
CCNC(=O)OCc1c(COC(=O)NCC)c(-c2ccc(OC)cc2)n2c1Cc1ccccc1-2 — lung metastasis (histopathology; mice with NCI-H460 xenograft; dose not given, day 29): 67%
Cc1ccc(N(CCc2nnc(S)n2N)S(=O)(=O)c2ccc(C)cc2)cc1 — analgesic protection (tail flick, radiant heat; rat; 200 mg/kg): 121%
CC(C)(O)c1ccc(N2Cc3c(ccnc3-c3ccc(F)cc3OCC(F)(F)F)C2=O)cc1 — glucosylsphingosine level (Gaucher disease mouse model, brain; 10 mg/kg, 2 months once daily; relative to: vehicle): 73 ± 6%
COC1C=CC=C(C)C(=O)NC2=CC(=O)C(NCCN(C)C)=C(CC(C)CC(OC)C(O)C(C)C=C(C)C1OC(N)=O)C2=O (centres unmarked) — gene expression (RNA-seq, refers to: FGFR4, MYCN; mouse, Rh30 xenograft; dose not given): decreased
COc1ccc2c(c1)c(CC(=O)OCC(=O)OC(C)(C)C)c(C)n2C(=O)c1ccc(Cl)cc1 — analgesia (acetic acid writhing test; BALB/c mouse; intraperitoneal, 20 mg/kg; relative to: negative control): 66.3%
O=C1CCN(Cc2ccccc2)CC1C(C[N+](=O)[O-])c1ccccc1 (centres unmarked) — number of writhes (mouse acetic acid writhing; 50 mg/kg, added: yohimbine 1 mg/kg pretreatment): 54.9 ± 1.3
COc1c2c(cc3oc(C)cc(=O)c13)O[C@H](C(C)(C)O[C@@H]1O[C@H](CO)[C@@H](O)[C@H](O)[C@H]1O)C2 — ear edema weight increase (mouse, xylene ear edema; oral, 4 mg/kg): 6.13 ± 0.25 mg
CC(=O)N[C@@H](CC(N)=O)C(=O)NCC(=O)N[C@@H](C)C(=O)N[C@@H](C)C(N)=O — rate constant succinimide to β-Asp (1H NMR; sodium phosphate buffer 50 mM; pH 7.4, 28 °C): 0.12 h⁻¹
COc1ccc(C2CC(c3ccc(C)cc3)=Nc3ccccc3S2)cc1 (centres unmarked) — blood glucose (rat, normal, overnight fasted; oral, 20 mg/kg, 30 min, oral glucose tolerance test, added: glucose 3 g/kg oral): 116 ± 4.45 mg/dL
COc1ccc2c(c1)c(CC(=O)OCC(=O)c1ccccc1)c(C)n2C(=O)c1ccc(Cl)cc1 — analgesia (acetic acid writhing test; BALB/c mouse; intraperitoneal, 30 mg/kg; relative to: negative control): 75.1%
N#Cc1ccc(-c2cc(=O)c3ccc4[nH]c(C(F)(F)F)nc4c3o2)cc1 — swim path distance (Morris water maze; 5xFAD mice; 3 mg/kg): decreased
COc1c2c(cc3oc(COC4OC(CO)C(O)C(O)C4O)cc(=O)c13)OC(C(C)(C)O)C2 (centres unmarked) — hot plate latency (analgesia; mouse; oral, 1 mg/kg, 0.5 h): 9.51 ± 1.71 s
Cc1ccc(-c2oc3ccccc3c(=O)c2OCc2ccccc2)cc1 — serum HDL cholesterol (diabetic rat; 5 mg/kg, 28 days, p-nitrophenyl β-glucoside induced): 42.8 ± 1.9 mg/dL
Cc1ncc([N+](=O)[O-])n1CCOCc1nnc(SCC(=O)c2ccc(O)cc2)o1 — DPPH scavenging (75 µg/mL, 45 min): 56.24 ± 0.37%
CN(C)c1ccc(-c2oc3ccccc3c(=O)c2OCc2ccccc2)cc1 — serum HDL cholesterol (diabetic rat; 5 mg/kg, 28 days, p-nitrophenyl β-glucoside induced): 46.9 ± 1.97 mg/dL
CCCC[C@H](NC(=O)[C@@H](NC(=O)[C@H](CC(=O)O)NC(=O)[C@H](CCC(N)=O)NC(=O)[C@H](CC(C)C)NC(=O)[C@H](CC(C)C)NC(=O)[C@H](CCCN)NC(=O)[C@H](CCCNC(=N)N)NC(=O)[C@H](C)NC(=O)[C@H](CO)NC(=O)[C@H](CC(C)C)NC(=O)[C@H](CCC(N)=O)NC(=O)[C@H](CC)NC(=O)[C@H](CC(C)C)NC(=O)[C@@H](NC(=O)[C@H](CCCN)NC(=O)[C@H](CCCNC(=N)N)NC(=O)[C@H](Cc1ccc(O)cc1)NC(=O)[C@H](CO)NC(=O)[C@H](CCC(N)=O)NC(=O)[C@@H](NC(=O)[C@H](Cc1ccccc1)NC(=O)[C@@H](NC(=O)[C@H](C)NC(=O)[C@H](CC(=O)O)NC(=O)[C@@H](C)NC(=O)[C@H](Cc1ccc(O)cc1)NC)[C@@H](C)CC)[C@@H](C)O)C(C)C)[C@@H](C)CC)C(=O)N[C@@H](CC(=O)O)C(=O)N[C@@H](CCCNC(=N)N)C(=O)NC — serum GH level (GH release, ELISA; male rat, anaesthetised, serum; intravenous, 1 µg/kg, 5 min): 642 ± 29.7 ng/mL
COc1cc([C@@H]2c3cc4c(cc3[C@@H](OCc3cc(-c5cc(C#N)cc(C#N)c5)no3)[C@H]3COC(=O)C23)OCO4)cc(OC)c1OC (some centres unmarked) — IC50 (tubulin polymerisation, inhibitor): 1430 nM
O=c1c(OCc2ccccc2)c(-c2ccc([N+](=O)[O-])cc2)oc2ccccc12 — serum LDL cholesterol (diabetic rat; 5 mg/kg, 28 days, p-nitrophenyl β-glucoside induced): 140 ± 4.14 mg/dL
NC(=O)c1cccnc1.O.O=c1[nH]cc(F)c(=O)[nH]1.O=c1[nH]cc(F)c(=O)[nH]1.O=c1[nH]cc(F)c(=O)[nH]1 — tumour weight (nude mouse HCT-116 xenograft; 0.012 mmol/kg/day, 21 days): 0.59 ± 0.13 g
Cc1cc(O)c(C=O)c2c1C(=O)Oc1c(CO)c(O)c3c(c1O2)C(O)OC3=O (centres unmarked) — serum insulin (rat, male, streptozotocin-induced diabetes; 10 mg/kg, 0 weeks): 3.43 ± 0.2 mIU/L
C=CC(=O)N1C[C@H](C)N(c2nc(OC[C@@]34CCCN3C[C@H](F)C4)nc3c(F)c(-c4ccc(F)c5sc(N)c(C#N)c45)c(C(F)(F)F)cc23)C[C@H]1C — pERK inhibition (mouse, MIA PaCa-2 Matrigel plug; 30 mg/kg single dose, 6 h): 92%
CCCC[C@H](NC(=O)[C@@H](NC(=O)[C@H](CC(=O)O)NC(=O)[C@H](CCC(N)=O)NC(=O)[C@H](CC(C)C)NC(=O)[C@H](CC(C)C)NC(=O)[C@H](CCCN)NC(=O)[C@H](CCCNC(=N)N)NC(=O)[C@H](C)NC(=O)[C@H](CO)NC(=O)[C@H](CC(C)C)NC(=O)[C@H](CCC(N)=O)NC(=O)[C@H](CC)NC(=O)[C@H](CC(C)C)NC(=O)[C@@H](NC(=O)[C@H](CCCN)NC(=O)[C@H](CCCNC(=N)N)NC(=O)[C@H](Cc1ccc(O)cc1)NC(=O)[C@H](CO)NC(=O)[C@H](CCC(N)=O)NC(=O)[C@@H](NC(=O)[C@H](Cc1ccccc1)NC(=O)[C@@H](NC(=O)[C@H](C)NC(=O)[C@H](CC(=O)O)NC(=O)[C@@H](C)NC(=O)CCc1ccc(O)cc1)[C@@H](C)CC)[C@@H](C)O)C(C)C)[C@@H](C)CC)C(=O)N[C@@H](CC(=O)O)C(=O)N[C@H](CCCNC(=N)N)C(=O)NC — serum GH level (GH release, ELISA; male Sprague-Dawley rat, anaesthetised, serum; subcutaneous, 3 µg/kg, 15 min): 218 ± 37 ng/mL
CCCCCCOC(=O)Cc1c(C)n(C(=O)c2ccc(Cl)cc2)c2ccc(OC)cc12 — analgesia (acetic acid writhing test; BALB/c mouse; intraperitoneal, 20 mg/kg; relative to: negative control): 69.3%
CCCC[C@H](NC(=O)[C@@H](NC(=O)[C@H](CC(=O)O)NC(=O)[C@H](CCC(N)=O)NC(=O)[C@H](CC(C)C)NC(=O)[C@H](CC(C)C)NC(=O)[C@H](CCCN)NC(=O)[C@H](CCCNC(=N)N)NC(=O)[C@H](C)NC(=O)[C@H](CO)NC(=O)[C@H](CC(C)C)NC(=O)[C@H](CCC(N)=O)NC(=O)[C@H](CC)NC(=O)[C@H](CC(C)C)NC(=O)[C@@H](NC(=O)[C@H](CCCN)NC(=O)[C@H](CCCNC(=N)N)NC(=O)[C@H](Cc1ccc(O)cc1)NC(=O)[C@H](CO)NC(=O)[C@H](CCC(N)=O)NC(=O)[C@@H](NC(=O)[C@H](Cc1ccccc1)NC(=O)[C@@H](NC(=O)[C@H](C)NC(=O)[C@H](CC(=O)O)NC(=O)[C@H](C)NC(=O)CCc1ccc(O)cc1)[C@@H](C)CC)[C@@H](C)O)C(C)C)[C@@H](C)CC)C(=O)N[C@@H](CC(=O)O)C(=O)NCCCCNC(=N)N — serum GH level (GH release, ELISA; male rat, anaesthetised, serum; intravenous, 1 µg/kg, 0 min): 48 ± 10.4 ng/mL
CCCOC(=O)Cc1c(C)n(C(=O)c2ccc(Cl)cc2)c2ccc(OC)cc12 — writhing count (BALB/c mice, acetic acid writhing; intraperitoneal, 20 mg/kg, 20 min count): 13.3 ± 1.58
CC[C@H]1[C@@H](O)[C@@H]2[C@H](CC[C@]3(C)[C@@H]([C@H](C)CCOS(=O)(=O)[O-])CC[C@@H]23)[C@@]2(C)CC[C@@H](O)C[C@@H]12.[Na+] — reduction of NAFLD activity score (ob/ob NASH mouse, liver; 10 mg/kg, 8 weeks; relative to: baseline, direction not given): ~3 points

Repeated from above:
COc1ccc2c(c1)c(CC(=O)OCC(=O)OC(C)(C)C)c(C)n2C(=O)c1ccc(Cl)cc1 — analgesia (acetic acid writhing test; BALB/c mouse; intraperitoneal, 20 mg/kg; relative to: negative control): 66.3%
Cc1cc2c(cc1C1(c3ncc(C(=O)O)cn3)CC1)C(C)(C)CCC2(C)C — log2 fold change (RNA sequencing, refers to: Arl11 mRNA; rat, brain; dose not given, 24 h, single dose; relative to: vehicle): -0.13
